# Published values of several laboratories.
# A part holds a random share of what one study measured. Positions count from the first letter of the parent shown.

# Series 1
# Target: Sal-like protein 4, full length isoform B (SALL4, Homo sapiens, UniProt Q9UJQ4-2, residues 1-616)
# Method: universal PBM
# Molecule type: double-stranded DNA, one strand shown
# Medium: in vitro
# Concentration: not given
# Notes: 8-mer, flanks averaged, mean of replicates
# Direction: higher = stronger binding
Sequence,E-score
CTAACGCC,-0.11
CAGCGTCC,-0.244
GCCTTACC,-0.106
AGTACCAC,-0.0752
TCGTTTAA,0.116
GGGCATGA,-0.284
ATGCTAAC,0.073
ATGTTACC,0.139
CCGGGTAA,-0.18
CAATGGGA,-0.046
AAGCCTGT,-0.0439
CCGCTGGA,-0.192
CCAGCATA,-0.00923
GCCAGTAC,-0.0541
CCCATTAC,0.0273
GGCCGCGA,-0.355
AAAATAGC,0.0897
ATACGCAA,0.159
CGACTGCA,-0.108
AATTCTCG,0.0517
AACGCCAT,-0.00316
GGACATTA,0.146
GAATACGA,0.213
TAAGGATA,0.125

# Series 2
# Target: PABPC1L2, full length, GST fusion (mouse, UniProt A0ABA7IW68)
# Method: RNAcompete
# Molecule type: RNA
# Medium: in vitro
# Concentration: 20 nM
# Notes: 7-mer, probes averaged, single round
# Reference: mean of 7-mers
# Direction: higher = stronger binding
# Residues (chain): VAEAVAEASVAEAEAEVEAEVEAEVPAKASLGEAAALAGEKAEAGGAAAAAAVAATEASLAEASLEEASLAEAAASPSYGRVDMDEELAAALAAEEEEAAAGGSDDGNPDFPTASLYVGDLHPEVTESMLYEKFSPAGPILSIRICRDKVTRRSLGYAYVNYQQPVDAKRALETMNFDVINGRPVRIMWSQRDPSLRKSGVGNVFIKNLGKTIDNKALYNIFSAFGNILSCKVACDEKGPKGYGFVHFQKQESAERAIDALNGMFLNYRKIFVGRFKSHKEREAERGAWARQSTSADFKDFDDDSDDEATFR
Sequence,7-mer Z-score
GCUUCAG,-0.197
GGCCACG,-0.00833
GACAUUC,-0.238
UUCUCCA,-0.391
GCGGUAA,-0.00833
CUUAAGG,-0.108
CUAAAAG,1.33
ACAGUAC,0.0714
UAUCAUA,-0.0409
UCUAGCU,-0.32
CGAAAAG,2.28
CGCAGCA,-0.251
CAGGGCC,-0.122
ACUUCCU,-0.347
UUCUUGA,-0.358
CUGGUCG,-0.364
UCAGCAA,0.0986
CUGGUGC,-0.0754
UAUCCGU,-0.338
CCGUAUG,-0.313
CACGCAU,-0.253
UCAGGUC,-0.0935
ACUGAAU,-0.195

# Series 3
# Target: ABI1, truncated, D143A, DHFR fusion (Arabidopsis thaliana)
# Method: DHFR PCA, deep sequencing
# Medium: yeast
# Notes: methotrexate growth selection, single substitutions
# Added: (+)-ABA 0.032 µM
# Reference: wild-type fitted maximum
# Direction: higher = stronger binding
# Starting sequence: PYL1, truncated, DHFR fusion (Arabidopsis thaliana); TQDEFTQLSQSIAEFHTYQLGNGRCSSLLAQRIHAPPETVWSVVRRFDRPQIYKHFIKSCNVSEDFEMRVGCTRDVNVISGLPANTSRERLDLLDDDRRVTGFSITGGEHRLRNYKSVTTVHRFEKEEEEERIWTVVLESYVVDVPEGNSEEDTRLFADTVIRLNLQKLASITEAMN; partner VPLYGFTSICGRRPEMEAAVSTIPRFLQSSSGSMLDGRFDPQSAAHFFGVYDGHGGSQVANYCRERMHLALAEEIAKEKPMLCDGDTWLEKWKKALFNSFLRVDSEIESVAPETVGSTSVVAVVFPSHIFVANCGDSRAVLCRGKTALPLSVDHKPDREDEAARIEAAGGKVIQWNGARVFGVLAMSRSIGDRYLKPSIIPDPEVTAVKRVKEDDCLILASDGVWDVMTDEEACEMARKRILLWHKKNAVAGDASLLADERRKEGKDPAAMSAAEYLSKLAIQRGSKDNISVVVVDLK
Substitution,relative binding score
G102N,-4.25%
E151W,4%
L169T,-2.4%
E89P,1.9%
L8C,4.15%
A175W,0.76%
S63Y,-15.9%
H16R,-1.91%
D144T,-4.57%
R69T,24.2%
G81L,6.05%
I57Q,-7.84%
F157N,2.63%
G71I,5.07%
E89R,-0.338%
E38R,1.83%
L164P,8%
E152F,-4.01%
E151F,-1.28%
R98C,-0.421%
S171P,5.03%

# Series 4
# Target: Interferon regulatory factor 7, full length, phosphomimetic (IRF7, Homo sapiens, UniProt Q92985, residues 1-503, S471D/S472D/S475D/S476D/S477D/S483D/S484D/S487D)
# Method: protein-binding microarray
# Molecule type: double-stranded DNA, one strand shown
# Medium: in vitro
# Concentration: 2200 nM top
# Notes: 60-bp whole probe
# Added: salmon DNA 0.4 mg/ml
# Reference: random background probes
# Direction: higher = stronger binding
# Constant ends, left off below: GCCTAGCAC … GTCTTGATTCGCTTGACGCTGCTG
# Construct (chain): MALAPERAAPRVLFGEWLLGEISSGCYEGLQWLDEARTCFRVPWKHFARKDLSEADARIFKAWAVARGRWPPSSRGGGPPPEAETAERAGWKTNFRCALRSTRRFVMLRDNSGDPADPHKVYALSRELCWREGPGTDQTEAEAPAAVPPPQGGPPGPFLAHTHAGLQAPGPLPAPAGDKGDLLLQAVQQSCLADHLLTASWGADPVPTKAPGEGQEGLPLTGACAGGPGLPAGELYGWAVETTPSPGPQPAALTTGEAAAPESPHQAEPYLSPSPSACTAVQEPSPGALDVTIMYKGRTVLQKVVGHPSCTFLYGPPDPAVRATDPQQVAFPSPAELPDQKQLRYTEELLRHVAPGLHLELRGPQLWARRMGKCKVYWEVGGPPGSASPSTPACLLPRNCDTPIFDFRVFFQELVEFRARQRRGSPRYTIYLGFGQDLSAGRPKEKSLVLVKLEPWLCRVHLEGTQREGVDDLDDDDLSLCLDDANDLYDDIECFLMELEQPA
Sequence,fitted relative affinity
AAAACTAGGGCATTTAGAAAAGTGCTA,-1.63 z-score
AGTGGCCCAGGGCATCCCCTGTGCTAG,-1.28 z-score
TTAGATTTCAGTATCCATTAGTGCTAG,1.07 z-score
ATTTAGTATTACCTATTTCTGTGCTAG,1.37 z-score
GACGATCTCAGCCTCGAGACGTGCTAG,0.216 z-score
TGTTTTACAGGTTCTCTTTTAGTGCTA,1.6 z-score
TTAGGACTGTACTTTCGGTTAGTGCTA,8.22 z-score
GACGGTTTCAGACTGGAGACGTGCTAG,1.04 z-score
TCAGTTTCTCCTTTCCAACTGTGCTAG,5.33 z-score
TCACATTTGGAAAATGAAACTGTGCTA,1.19 z-score
TGGTATTTTTTTCTAATTGAGTGCTAG,1.26 z-score
TTAGGACTGGGACTGGATTAGTGCTAG,-0.784 z-score
GGAAGTCCCATGTTGCAGACTGTGCTA,0.449 z-score
TTAGAACTGAATATCGATTAGTGCTAG,-0.569 z-score
GACGGACTGCTTGTCCTGACGTGCTAG,0.442 z-score
TTAGAACTGTGTTTCGATTAGTGCTAG,2.22 z-score
TCAATTTTGTTTTTCATACTGTGCTAG,2.29 z-score
GACGATTTTGGGACTGGAGACGTGCTA,0.0446 z-score
TCATGCTTGTATCTGGGACTGTGCTAG,0.763 z-score
GACGGTTTCCTTCTCCTGACGTGCTAG,3.04 z-score
GGAAGTATGACTCTGCCTCTGTGCTAG,0.16 z-score
TTAGGTTTCCTACTTCTTTAGTGCTAG,1.33 z-score
GACGGTTTCGACTATCAGGACGTGCTA,3.23 z-score
GACGGTTTCAGTCTCGGGACGTGCTAG,2.27 z-score
TCTAATCTCACTCTGTCCCTGTGCTAG,1.7 z-score

# Series 5
# Target: Histone acetyltransferase KAT6A, both winged helices, GST fusion (KAT6A, Homo sapiens, UniProt Q92794, residues 1-181)
# Method: protein binding microarray
# Molecule type: double-stranded DNA, one strand shown
# Medium: in vitro
# Concentration: not given
# Notes: 8-mer, flanks averaged, mean of 2 arrays, mostly near background
# Reference: not given
# Direction: higher = stronger binding
# Construct (chain): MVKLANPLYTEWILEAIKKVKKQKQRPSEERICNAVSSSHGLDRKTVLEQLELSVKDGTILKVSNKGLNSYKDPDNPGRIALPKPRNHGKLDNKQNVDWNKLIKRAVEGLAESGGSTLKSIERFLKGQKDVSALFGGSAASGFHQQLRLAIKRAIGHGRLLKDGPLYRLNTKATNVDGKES
Sequence,E-score
GACCGACA,0.199
AGCTATAC,-0.0904
ATCGTATC,-0.151
GCGCTAAA,0.289
CTTCTACA,-0.102
CGTATCAC,0.147
ACGAGCTG,-0.217
CATTGTCG,-0.00923
CGGCTACG,0.297
AGCCTTGC,-0.0367
CGGTATAC,0.164
GAGCTAAC,-0.0629
GGATTCTA,-0.152
GCCTAAGA,-0.0432
CTTGTGCC,-0.0962
GGATACCA,-0.0311
CATTTGGC,-0.158
CTAGTTAC,-0.00454
CCTAACGA,-0.0728
CCACTGGG,-0.254
CGCCAAAC,0.121

# A few entries again (series 4):
Sequence,fitted relative affinity
AAAACTAGGGCATTTAGAAAAGTGCTA,-1.63 z-score
AGTGGCCCAGGGCATCCCCTGTGCTAG,-1.28 z-score
TTAGATTTCAGTATCCATTAGTGCTAG,1.07 z-score
ATTTAGTATTACCTATTTCTGTGCTAG,1.37 z-score
GACGATCTCAGCCTCGAGACGTGCTAG,0.216 z-score
TGTTTTACAGGTTCTCTTTTAGTGCTA,1.6 z-score
TTAGGACTGTACTTTCGGTTAGTGCTA,8.22 z-score
GACGGTTTCAGACTGGAGACGTGCTAG,1.04 z-score
TCAGTTTCTCCTTTCCAACTGTGCTAG,5.33 z-score
TCACATTTGGAAAATGAAACTGTGCTA,1.19 z-score
TGGTATTTTTTTCTAATTGAGTGCTAG,1.26 z-score
TTAGGACTGGGACTGGATTAGTGCTAG,-0.784 z-score
GGAAGTCCCATGTTGCAGACTGTGCTA,0.449 z-score
TTAGAACTGAATATCGATTAGTGCTAG,-0.569 z-score
GACGGACTGCTTGTCCTGACGTGCTAG,0.442 z-score
TTAGAACTGTGTTTCGATTAGTGCTAG,2.22 z-score
TCAATTTTGTTTTTCATACTGTGCTAG,2.29 z-score
GACGATTTTGGGACTGGAGACGTGCTA,0.0446 z-score
TCATGCTTGTATCTGGGACTGTGCTAG,0.763 z-score
